Experimental data of several laboratories.
“And” joins repeats or separate records; there may be more than shown. Numbers after ± are the reported error.

SMILES	assay	system	setting	how to read	endpoint	result
CC(C)(C)NCC(SS(=O)(=O)O)c1ccccc1 (stereo not drawn)	–	Swiss Webster mice, Schistosoma mansoni-infected	400 mg/kg single dose on day 42 post-infection, perfusion day 56 post-infection	baseline: vehicle	spleen weight decrease	31%
COc1cc(O)ccc1CCC(c1ccc(O)cc1)c1cc2c(c(C)c1O)OC(c1ccc(O)cc1)CC2 (mixture of isomers)	item: docosahexaenoic acid	human whole blood	30 µM, added: Escherichia coli	–	amount	31700 ± 4180 pg/mL blood
CCC(CC)n1c(Cc2ccco2)nc2cc(C(=O)N[C@@H](CC(=O)O)c3ccccc3)ccc21	item: hypertrophic markers ANP, BNP	mouse HFpEF model (high-fat diet plus L-NAME, 7 weeks)	intraperitoneal, 20 mg/kg/day, 2 weeks	–	mRNA level	decreased
COC1CN([C@H]2CC[C@H]([C@@]3(C)Oc4c(Cl)cc(C(=O)NCc5c(SC)cc(C)[nH]c5=O)c(C)c4O3)CC2)C1	RNA-seq, item: PLS1 mouse homolog	mouse, HT-1376 xenograft, whole blood	dose not given	baseline: vehicle	log2 fold change	0.596
Cc1cc(C(C)(C)C)ccc1OCCOCCN(C)C	locomotor activity in dark	zebrafish larvae, 7 dpf	10 µM, minute 3, dark phase	–	larval motion	9.3 ± 1.1 pixels/frame
CCC(=O)N[C@@H](C)C(=O)OCC(=O)N[C@@H](C)C(=O)O	–	water	pH 6, 37 °C	–	chain scission rate constant	0.0016 h⁻¹
O=S(=O)(NCc1ccncc1)c1ccc(C2CCCCC2)cc1	immunohistochemistry	CK-p25 mice male, hippocampus	ip, 0.1 mg/kg daily, 2 wk	baseline: vehicle	GFAP area reduction	~46%
Cc1cn(CC(=O)N(CC(=O)N[C@H]2CCC[C@@H]2N(CC(=O)N[C@H]2COC[C@@H]2N(CC(=O)N[C@H]2COC[C@@H]2N(CC(=O)N[C@H]2COC[C@@H]2N(CC(=O)NCCOCCOCC(N)=O)C(=O)Cn2cnc3c(N)ncnc32)C(=O)Cn2cc(C)c(=O)[nH]c2=O)C(=O)Cn2cnc3c(N)ncnc32)C(=O)Cn2cnc3c(=O)[nH]c(N)nc32)[C@H]2CCC[C@@H]2NC(=O)CN(C(=O)Cn2cnc3c(=O)[nH]c(N)nc32)[C@H]2CCC[C@@H]2NC(=O)CN(C(=O)Cn2cc(C)c(=O)[nH]c2=O)[C@H]2COC[C@@H]2NC(=O)CN(C(=O)Cn2cnc3c(N)ncnc32)[C@H]2COC[C@@H]2NC(=O)CN(C(=O)Cn2cnc3c(=O)[nH]c(N)nc32)[C@H]2COC[C@@H]2N)c(=O)[nH]c1=O	UV melting	RNA duplex with T·C mismatch	pH 7.2, 1 µM each strand	–	Tm	58.2 °C
COc1ccc2cc3[n+](cc2c1OC)CCc1cc2c(cc1-3)OCO2.[Cl][Fe-]([Cl])([Cl])[Cl]	–	–	1.0 mg/mL, 30 min, 25 °C	–	DPPH scavenging	46%
Cc1cn(CC(=O)N(CCNC(=O)CN(CCNC(=O)CN(CCNC(=O)CN(CCNC(=O)CN(CCNC(=O)CN(CCNC(=O)CN(CCNC(=O)CN(CCN)C(=O)Cn2cnc3c(=O)[nH]c(N)nc32)C(=O)Cn2cnc3c(N)ncnc32)C(=O)Cn2cc(C)c(=O)[nH]c2=O)C(=O)Cn2cnc3c(=O)[nH]c(N)nc32)C(=O)Cn2cc(C)c(=O)[nH]c2=O)C(=O)Cn2cnc3c(=O)[nH]c(N)nc32)C(=O)Cn2cnc3c(N)ncnc32)CC(=O)NCCN(CC(=O)NCCOCCOCC(N)=O)C(=O)Cn2cnc3c(N)ncnc32)c(=O)[nH]c1=O	UV melting	DNA duplex with T·C mismatch	pH 7.2, 1 µM each strand	–	Tm	22.9 °C
O=C(CCN1CCN(C/C=C/c2ccccc2)CC1)Nc1ccccc1F	–	zebrafish larvae, 7 dpf	10 µM, minute 2	–	larval motion	7.8 ± 2 pixels/frame
CN(C)C(=O)c1ccnc(N2Cc3cn(Cc4ccc(F)cc4F)nc3C2)n1	–	mouse, hippocampal slice, Schaffer collaterals	dose not given, interstimulus interval 1000	baseline: second over first response	paired-pulse ratio	1.11 and 1.28 and 1.08 and 1.1 and 1.03 and 1.14 and 1.23 and 1.02
Cc1cccc(NC(=O)CCN2CCN(C/C=C/c3ccccc3)CC2)c1	–	zebrafish larvae, 7 dpf	10 µM, minute 6	–	larval motion	6.8 ± 0.8 pixels/frame
CC(=O)[O-].O.O.O.O.[Co+2].[O-]c1ccc(Br)cc1C=NCCN1CCOCC1	hydroxyl radical scavenging	–	160 µM	–	inhibition	38.4%
Cc1ccc(C)c(OCC(O)CN2CCN(c3cc(Cl)ccc3C)CC2)c1 (stereo not drawn)	–	zebrafish larvae, 7 dpf	10 µM, minute 4	–	larval motion	1.2 ± 0.4 pixels/frame
CCCCCCCCCCCCCCCC(=O)NCCCC[C@H](NC(=O)[C@H](CCC(=O)O)NC(=O)[C@H](Cc1ccc(O)cc1)NC(=O)[C@H](CCC(=O)O)NC(=O)COCC(=O)NCCCOCCOCCOCCCNC(=O)[C@H](Cc1ccccc1)NC(=O)[C@H](CC(N)=O)NC(=O)[C@H](Cc1c[nH]cn1)NC(=O)[C@@H](NC(=O)[C@H](CC(=O)O)NC(=O)[C@H](CCC(N)=O)NC(=O)[C@H](CC(C)C)NC(=O)[C@H](CCCCN)NC(=O)[C@H](CCCCN)NC(=O)[C@H](CCCNC(=N)N)NC(=O)[C@H](CC(C)C)NC(=O)[C@H](Cc1c[nH]c2ccccc12)NC(=O)[C@H](CCC(=O)O)NC(=O)[C@@H](NC(=O)[C@H](CCCNC(=N)N)NC(=O)[C@H](CCC(=O)O)NC(=O)[C@H](CCSC)NC(=O)[C@H](CO)NC(=O)[C@H](CC(N)=O)NC(=O)[C@H](CC(C)C)NC(=O)[C@H](Cc1c[nH]cn1)NC(=O)[C@H](CCCCN)NC(=O)CNC(=O)[C@H](CC(C)C)NC(=O)[C@H](CC(N)=O)NC(=O)[C@H](Cc1c[nH]cn1)NC(=O)[C@H](CCSC)NC(=O)[C@H](CC(C)C)NC(=O)[C@H](CCC(N)=O)NC(=O)[C@@H](NC(=O)[C@H](CCC(=O)O)NC(=O)[C@H](CO)NC(=O)[C@@H](NC(=O)[C@@H](N)CO)C(C)C)[C@@H](C)CC)C(C)C)C(C)C)C(=O)N[C@@H](CCC(=O)O)C(=O)N[C@@H](Cc1ccc(O)cc1)C(=O)N[C@@H](CCC(=O)O)C(N)=O	micro-CT	humanized PTH1R mouse, femur mid-shaft	50 nmol/kg/day, 3 weeks, daily dosing, woven bone excluded	–	cortical porosity	12.5 ± 3.17%
Cc1cc(OCCOCCN(C)C)cc(C(C)C)c1	–	zebrafish larvae, 7 dpf	10 µM, minute 6	–	larval motion	10.5 ± 0.4 pixels/frame
COc1cc(N2CCN(C(=O)C3CCCN3)CC2)ccc1Nc1ncc(Cl)c(Nc2ccccc2P(C)(C)=O)n1 (stereo not drawn)	–	nude mice, NCI-H3122 xenograft	oral, 25 mg/kg every two days, day 5	–	tumour volume	58 mm3 and 53.8 mm3 and 186 mm3 and 18.1 mm3 and 129 mm3
O=C(CCN1CCN(C/C=C/c2ccccc2)CC1)Nc1ccc2c(c1)CCC2	–	zebrafish larvae, 7 dpf	10 µM, minute 2	–	larval motion	15.8 ± 2.1 pixels/frame
NC[C@@H](C(=O)Nc1ccc(-c2cn[nH]c2)cc1)c1ccccc1	tonometry	NZW rabbit, magnetic bead-induced ocular hypertension	ocular, 0.1%, 8 h	–	IOP	30.5 mmHg
CN(C)CCOCCOc1ccc(Cl)c(Cl)c1	locomotor activity in dark	zebrafish larvae, 7 dpf	10 µM, minute 7, dark phase	–	larval motion	1.5 ± 0.7 pixels/frame
CN1CCC[C@]1(C)/C=C/S(=O)(=O)NC(=O)Nc1c2c(cc3c1CCC3)CCC2	–	human, whole blood ex vivo	25 mg single dose, 6 h, single ascending dose, added: LPS and ATP	–	IL-1β inhibition	98.2%
O=C(CCN1CCN(C/C=C/c2ccccc2)CC1)Nc1ccccc1	locomotor activity in dark	zebrafish larvae, 7 dpf	10 µM, minute 5, dark phase	–	larval motion	2.5 ± 0.6 pixels/frame
CCCCCc1ccc(S(=O)(=O)N2CC2C(=O)OC)cc1 (stereo not drawn)	–	mouse, Lewis lung carcinoma	intraperitoneal, 15 mg/kg, 16 doses, day 13	–	tumour growth inhibition	68%

Repeated from above:
SMILES	assay	system	setting	how to read	endpoint	result
COc1ccc2cc3[n+](cc2c1OC)CCc1cc2c(cc1-3)OCO2.[Cl][Fe-]([Cl])([Cl])[Cl]	–	–	1.0 mg/mL, 30 min, 25 °C	–	DPPH scavenging	46%
O=C(CCN1CCN(C/C=C/c2ccccc2)CC1)Nc1ccccc1	locomotor activity in dark	zebrafish larvae, 7 dpf	10 µM, minute 5, dark phase	–	larval motion	2.5 ± 0.6 pixels/frame
O=C(CCN1CCN(C/C=C/c2ccccc2)CC1)Nc1ccc2c(c1)CCC2	–	zebrafish larvae, 7 dpf	10 µM, minute 2	–	larval motion	15.8 ± 2.1 pixels/frame
